Measurements from different studies.
Lines come from different studies, so protocols differ. “And” joins repeats or separate records; there may be more than shown. Numbers after ± are the reported error.

`C=CC(=O)Nc1cccc(Cn2ncc3cnc(Nc4cnn(CCOC)c4)nc32)c1` has a binding of 100% (human PFTAIRE2; KINOMEscan; 100 nM; reference: control).
`Fc1ccc(Nc2nc(NC3CCCCC3)c3cc(Br)ccc3n2)cc1F` has a maximal inhibition of -2.8% (β2AR/β1AR ECL2/3 chimera; β-arrestin2 recruitment, antagonist, BRET; reference: isoprenaline maximal response).
For `Cc1cn(CC(=O)N(CC(=O)N[C@H]2COC[C@@H]2N(CC(=O)NCCOCCOCC(N)=O)C(=O)Cn2cnc3c(N)ncnc32)[C@H]2COC[C@@H]2NC(=O)CN(C(=O)Cn2cnc3c(N)ncnc32)[C@H]2COC[C@@H]2NC(=O)CN(C(=O)Cn2cnc3c(=O)[nH]c(N)nc32)[C@H]2COC[C@@H]2NC(=O)CN(C(=O)Cn2cc(C)c(=O)[nH]c2=O)[C@H]2COC[C@@H]2NC(=O)CN(C(=O)Cn2cnc3c(=O)[nH]c(N)nc32)[C@H]2COC[C@@H]2NC(=O)CN(C(=O)Cn2cc(C)c(=O)[nH]c2=O)[C@H]2COC[C@@H]2NC(=O)CN(C(=O)Cn2cnc3c(N)ncnc32)[C@H]2COC[C@@H]2NC(=O)CN(C(=O)Cn2cnc3c(=O)[nH]c(N)nc32)[C@H]2COC[C@@H]2N)c(=O)[nH]c1=O`, the ΔTm was -14.4 °C (mismatched RNA TG; duplex formation, UV melting; reference: complementary RNA).
The ΔTm of `C[n+]1cc(/C=N/NC(=O)c2ccc3ccc4ccc(C(=O)N/N=C/c5cc6ccccc6[n+](C)c5)nc4c3n2)cc2ccccc21` is reported as 9.2 ± 0.8 °C (MYC parallel G4 DNA; FRET melting; 1 µM, DNA 0.2 µM).
With `Nc1ncc(-c2cc(-c3cnn(CC(F)(F)F)c3)ncc2F)nc1C(=O)NC1CNCC(F)C1` (stereo not drawn) the remaining binding was 100% (EPHA5; KINOMEscan; 1 µM; reference: DMSO control).
For `C[n+]1cccc2cc(/C=N/NC(=O)c3ccc4ccc(C(=O)N/N=C/c5ccc6c(ccc[n+]6C)c5)nc4n3)ccc21`, the ΔTm was 8.5 ± 0.1 °C (MYC parallel G4 DNA; FRET melting; 1 µM, DNA 0.2 µM, added: duplex DNA competitor 10 µM).
`CCCCCCc1cccc(C(O)CC(CO)NC(=O)CCCCCCCCCCNC(C)=O)c1` (stereo not drawn) gave a sphingomyelin level of 786000 pmol/sample and 619000 pmol/sample and 808000 pmol/sample (CERT; HPLC-MS/MS, item: total sphingomyelin; HeLa; 1 µM, 24 h).
For `CNC(NN=Cc1ccc([N+](=O)[O-])o1)=[S+][Au-][Cl]`, the Stern-Volmer constant was 18000 M⁻¹ (calf thymus DNA; ethidium bromide displacement, fluorescence quenching; up to 50 µM).
With `C=CC(=O)N1[C@@H](c2ccc3c(c2)OCO3)c2[nH]c3ccccc3c2C[C@H]1C(=O)N1CCN(C)CC1` the relative co-enrichment was 101% (human cyclin E1 wild type-3xFLAG:CDK2; co-IP with TMT proteomics, item: TK1; concentration not given, P04183; reference: wild type DMSO).
Under “log2 fold change”, `c1ccc(-c2n[nH]cc2-c2ccnc3ccccc23)nc1` is recorded as 0.14 (RIO2 (Candida albicans); kinase binding, MIB/MS competition; Candida albicans lysate; 1 µM; reference: DMSO).
`O=C(N/N=C/c1cc[n+](CC2CC2)c2ccccc12)c1cccc(C(=O)N/N=C/c2cc[n+](CC3CC3)c3ccccc23)c1` has a ΔTm of 6.2 ± 0.2 °C (MYC parallel G4 DNA; FRET melting; 1 µM, DNA 0.2 µM, added: duplex DNA competitor 10 µM).
The cooperativity alpha of `C#CCN1CCN(c2nc(N3CCC(CCOc4cc(-c5scnc5C)ccc4CNC(=O)[C@@H]4C[C@@H](O)CN4C(=O)[C@@H](NC(=O)C4(F)CC4)C(C)(C)C)CC3)nc(N3CCN(C(=O)C4CC4)C3)n2)CC1=O` is reported as 6.4 (VHL-elongin C-elongin B and BRD9; SPR; immobilized VHL-elongin C-elongin B; reference: binary KD over ternary KD).
With `C[n+]1cc(/C=N/NC(=O)c2cccc(C(=O)N/N=C/c3cc4ccccc4[n+](C)c3)n2)cc2ccccc21` the ΔTm was 7 ± 0.7 °C (MYC parallel G4 DNA; FRET melting; 1 µM, DNA 0.2 µM).
`O=C(Nc1ccccc1)c1ccc(Nc2nnc(-c3ccc(O)cc3)c3ccccc23)cc1` gave a licking time of 0 s (TRPV1; nocifensive response; mouse; intraplantar, 30 µg).
The ΔTm of `O=C(N/N=C/c1ccc(C[n+]2ccccc2)cc1)c1ccc2ccc(C(=O)N/N=C/c3ccc(C[n+]4ccccc4)cc3)nc2n1` is reported as 6.6 ± 0.4 °C (MYC parallel G4 DNA; FRET melting; 1 µM, DNA 0.2 µM).
`CCCCCCCCCCCC(=O)N[C@@H](CO)C[C@@H](O)c1cccc(CCCCCC)c1` has a sphingomyelin level of 502000 pmol and 591000 pmol and 515000 pmol (CERT; HPLC-MS/MS, item: SM C16; HeLa; 1 µM, 24 h).
For `CCCCCC(O)/C=C/C=O` (stereo not drawn), the IC50 was 132 µM and 201 µM and 199 µM and 196 µM and 190 µM and 345 µM and 239 µM and 163 µM (cysteine-reactive proteome; iodoacetamide probe labelling, competitive isoTOP-ABPP; MDA-MB-231, cell proteome).
The ΔTm of `O=C(N/N=C/c1ccc(C[n+]2ccccc2)cc1)c1cccc(C(=O)N/N=C/c2ccc(C[n+]3ccccc3)cc2)n1` is reported as 4.5 ± 0.3 °C (MYC parallel G4 DNA; FRET melting; 1 µM, DNA 0.2 µM, added: duplex DNA competitor 10 µM).
For `O=C(Nc1cccc(C(=O)N2CCC(c3nc(-c4ccccc4)n[nH]3)CC2)c1)c1ccccc1`, the IC50 was 3.03 ± 0.08 µM (FSP1 F15A mutant; resazurin reduction, inhibitor; pH 7.2, added: 50 µM resazurin, NADH).
`O=C(N/N=C/c1ccc2c(ccc[n+]2Cc2ccccc2)c1)c1ccc2ccc(C(=O)N/N=C/c3ccc4c(ccc[n+]4Cc4ccccc4)c3)nc2n1` gave a ΔTm of 0.9 ± 0.1 °C (hp2 hairpin duplex DNA; FRET melting; 1 µM, added: ds26 10 µM).
`Cc1ncc(CNc2nc(N3CC(CCOc4cc(-c5scnc5C)ccc4CNC(=O)[C@@H]4C[C@@H](O)CN4C(=O)[C@@H](NC(=O)C4(F)CC4)C(C)(C)C)C3)nc(N3CCC[C@H]3Cn3ccnn3)n2)c(N)n1` gave a cooperativity alpha of 2.9 (VHL-elongin C-elongin B and BRD9; SPR; immobilized VHL-elongin C-elongin B; reference: binary KD over ternary KD).

For quick reference, copied from above:
For `CNC(NN=Cc1ccc([N+](=O)[O-])o1)=[S+][Au-][Cl]`, the Stern-Volmer constant was 18000 M⁻¹ (calf thymus DNA; ethidium bromide displacement, fluorescence quenching; up to 50 µM).
